# Results gathered from unrelated publications.
# Protocols differ between the studies behind these lines. ± gives the spread as reported.
# CYP2C8: Cytochrome P450 2C8 (CYP2C8, Homo sapiens, UniProt P10632)
# Sequence of UniProt P10632 (whole entry, looked up): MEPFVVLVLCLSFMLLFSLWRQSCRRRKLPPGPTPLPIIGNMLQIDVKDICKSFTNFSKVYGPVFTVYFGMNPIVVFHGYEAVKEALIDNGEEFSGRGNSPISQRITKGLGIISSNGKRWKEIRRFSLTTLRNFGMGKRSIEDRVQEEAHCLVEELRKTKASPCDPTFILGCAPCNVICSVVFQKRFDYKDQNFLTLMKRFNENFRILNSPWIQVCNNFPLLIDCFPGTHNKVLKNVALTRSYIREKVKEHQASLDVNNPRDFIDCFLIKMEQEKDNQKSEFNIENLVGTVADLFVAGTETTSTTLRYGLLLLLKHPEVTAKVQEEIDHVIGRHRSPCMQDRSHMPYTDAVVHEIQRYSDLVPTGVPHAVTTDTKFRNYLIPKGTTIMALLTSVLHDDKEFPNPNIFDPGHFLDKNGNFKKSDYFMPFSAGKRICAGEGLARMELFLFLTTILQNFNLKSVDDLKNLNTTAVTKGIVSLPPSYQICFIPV
# Sequence of UniProt P08684 (whole entry, looked up): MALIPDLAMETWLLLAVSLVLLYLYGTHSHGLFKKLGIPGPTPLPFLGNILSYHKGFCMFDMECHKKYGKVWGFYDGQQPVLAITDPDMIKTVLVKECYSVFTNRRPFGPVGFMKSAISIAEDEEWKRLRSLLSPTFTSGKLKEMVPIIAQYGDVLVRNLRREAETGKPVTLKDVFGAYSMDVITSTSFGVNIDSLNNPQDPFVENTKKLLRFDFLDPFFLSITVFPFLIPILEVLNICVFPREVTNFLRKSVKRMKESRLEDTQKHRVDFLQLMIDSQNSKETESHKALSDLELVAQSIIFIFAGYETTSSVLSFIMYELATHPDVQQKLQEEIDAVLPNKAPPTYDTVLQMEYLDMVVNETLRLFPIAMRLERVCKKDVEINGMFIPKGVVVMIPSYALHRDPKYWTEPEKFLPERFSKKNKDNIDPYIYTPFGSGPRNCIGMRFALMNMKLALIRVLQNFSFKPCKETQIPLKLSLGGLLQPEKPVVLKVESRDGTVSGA
Structure (SMILES),tested on,test,test system,conditions,how to read,endpoint,value
Cn1cc(-c2ccc(-c3cncc(Cl)c3N3CCC4(CCNC4=O)CC3)cc2)cn1,COLO 205,"gene expression, microarray, measured: CDC20 mRNA",,"concentration not given, 2 h",relative to: untreated cells,log2 fold change,-1.82
COc1ccc([C@@H](O)c2cc(-c3ncnc4cc(N5CCOCC5)ccc34)c(F)cc2Cl)nn1,,,locally advanced rectal cancer patients,"50 mg, with: capecitabine and radiotherapy",,metabolism nutrition disorder TEAE,0%
Cc1cc(-c2nccc3c2ccn3CC(=O)Nc2ccc(-c3cnccn3)cn2)ccn1,,,human,"SAD part, single 20 mg dose",,subjects with gastrointestinal disorders TEAEs,0%
Cc1cc(Nc2ncnc3ccc(NC4=NC(C)(C)CO4)cc23)ccc1Oc1ccn2ncnc2c1,CYP2C8,,"human, plasma","oral, 300 mg single dose, day 1, arithmetic mean",,Cmax,442 ng/mL
Cc1cc(Nc2ccc(S(F)(F)(F)(F)F)cc2)n2nc(C(C)(F)F)nc2n1,Plasmodium falciparum,,P. falciparum malaria patients,"oral, 250 mg",,patients with blurred vision,0%
COc1cc(N)c(Cl)cc1C(=O)NC1CCN(CCCOc2ccc(F)cc2)CC1OC (stereo not shown),,,"male Hartley guinea pigs, anaesthetized","intravenous, 0.1 mg/kg over 10 min, after infusion",,mean blood pressure,30 ± 0.3 mmHg
O=C(O)CCC(=O)O.[2H]C([2H])([2H])Oc1cc(C)c2[nH]ccc2c1CN1CC[C@@H](C2CC2)C[C@H]1c1ccc(C(=O)O)cc1,,multiple ascending dose,healthy Chinese subjects,100 mg twice daily,,subjects with elevated AST TEAE,12.5%
CCc1cc2ncc(CN3CCN(c4ccc(C(=O)NC)nc4)CC3)cc2[nH]c1=O,,,male rat,"oral, 5 mg/kg/day, 4 weeks, GLP toxicology",relative to: control,white blood cell count change,0.75
CN1C(C(=O)Nc2cccc(F)n2)=C(O)c2ccccc2S1(=O)=O,,,,,,pKa (basic),< 2
CO[C@H]1C[C@@H]2CC[C@@H](C)[C@@](O)(O2)C(=O)C(=O)N2CCCC[C@H]2C(=O)O[C@H]([C@H](C)C[C@@H]2CC[C@@H](OC(=O)NCCOCCOCCOCCOCCOCCOCCOCCOCCC(=O)N3CCc4cc(Cn5nc(-c6ccc7oc(N)nc7c6)c6c(N)ncnc65)ccc4C3)[C@H](OC)C2)C[C@@H](O)[C@H](C)/C=C(\C)[C@@H](O)[C@@H](OC)C(=O)[C@H](C)C[C@H](C)/C=C/C=C/C=C/1C,,,"mice, plasma","intraperitoneal, 1 mg/kg, weekly dosing",,unbound AUClast,0.021 to 0.084 µM·h
CC(C)NCC(O)COc1cccc2ccccc12 (stereo not shown),,,"male Hartley guinea pigs, anaesthetized","intravenous, 1 mg/kg over 10 min, after infusion",,mean blood pressure,39 ± 0.1 mmHg
Cc1cc(Nc2cc3ncccc3c(N[C@@H]3C[C@H]4CC[C@@H](C3)N4CCC#N)n2)n[nH]1,,,healthy human subjects,"oral, 30 mg, 14 days, multiple ascending dose",,papular rash incidence,0%
O=C(Cc1ccc(-c2cccs2)cc1)Nc1cc(C2CC2)[nH]n1,,,,,,pKa,3.74
COC(=O)[C@@H]1[C@H]2C[C@H]3c4[nH]c5ccccc5c4CCN3C[C@@H]2CC[C@@H]1O,,,"rat, plasma","intraperitoneal, 1 mg/kg, 1.5 h, with: tizanidine",,concentration,990 nM
CCC(CC)C(=O)Oc1cccc(C(O)CCN)c1.O=CO (stereo not shown),,scotopic ERG,BALB/cJ mice,"intraperitoneal, 10 mg/kg, 0.5 h dark adaptation, with: 10,000 lx photobleach, 10 min",,ERG b-wave amplitude,0 µV
CC(C)(C)c1ccc(O)c(CN(Cc2cc(C(C)(C)C)ccc2O)C2CCC(NC(N)=O)CC2)c1 (stereo not shown),,,"C57BL/6 mice, male, plasma","oral, 10 mg/kg",,elimination rate constant,6.94e-05 s⁻¹
CC(C)(C(=O)N1CCOc2c(C#N)cncc2C1)C(F)F,,measured: vessel puncture site haemorrhage,"human, both sexes","oral, 10 mg once daily, 14 days, multiple ascending dose",,subjects with TEAE,0%
CC(C)C[C@H](NC(=O)[C@H](CCc1ccccc1)NC(=O)CN1CCOCC1)C(=O)N[C@@H](Cc1ccccc1)C(=O)N[C@@H](CC(C)C)C(=O)[C@@]1(C)CO1,,"population PK, two-compartment model","adult relapsed/refractory DLBCL patients, plasma","intravenous infusion, dose not given, with: R-ICE",,intercompartmental clearance,12.5 L/h
CCN1/C(=C/C(C)=O)Sc2ccc(F)cc21,,,cynomolgus monkey,"oral, 10 mg/kg, 1 h post-dose",relative to: pre-dose,PR interval change,102 ± 7.4%
COc1cc2[nH]c(C)c(-c3c(C)noc3C)c(=O)c2cc1Cl,,,PAMPA,pH 7.4,,Papp,24 ×10⁻⁶ cm/s
C=CC1(C)CC(OC(=O)CSc2ccc(N)cc2)C2(C)C(C)CCC3(CCC(=O)C32)C(C)C1O (stereo not shown),,,sheep erythrocytes,"1 h, pH 7.5",,maximum haemolysis,2%
Cn1c(C(F)(F)F)cc(=O)n(-c2cc(Oc3cccnc3OCC(=O)O)c(Cl)cc2F)c1=O,,,"beagle dog, male, plasma","oral capsule, 100 mg/kg/day epyrifenacil, week 13, 90-day study",,Tmax,5 h
COc1cc2c(CCNC(C)=O)c[nH]c2cc1O,,"sulfation, substrate",pooled human kidney cytosol,"50 µM, 30 min, with: 50 mM NaF",,specific activity,10.3 ± 0.33 pmol/min/mg
CC(F)(F)c1cc(F)ccc1-c1sc2cc(O)ccc2c1Oc1ccc(/C=C/C(=O)O)cc1,,,"human, serum","oral, 900 mg once daily, cycle 1 day 28, fasted, mean",,AUC(0-last),42100 ng·h/mL
CC[C@H]1[C@@H](O)[C@@H]2[C@H](CC[C@]3(C)[C@@H]([C@H](C)CCNC(=O)NS(=O)(=O)c4ccc(C(C)(C)C)cc4)CC[C@@H]23)[C@@]2(C)CC[C@@H](O)C[C@@H]12,"Cytochrome P450 3A4 (CYP3A4, Homo sapiens, UniProt P08684)",,"human, plasma","10 mg, day 1, compound alone",,half-life mean,12.2 h
COc1cc2[nH]c(C)c(-c3ccc(C(F)(F)F)cc3)c(=O)c2cc1Cl,,,PAMPA,pH 7.4,,Papp,< 5 ×10⁻⁶ cm/s
CC(C)C[C@H](NC(=O)C[C@H](O)[C@H](CC(C)C)NC(=O)[C@H](Cc1c[nH]cn1)NC(=O)CNC(=O)[C@@H](NC(=O)[C@H](C)NC(=O)[C@H](Cc1c[nH]c2ccccc12)NC(=O)[C@H](CCC(N)=O)NC(=O)[C@@H](Cc1ccccc1)NC(=O)COCCOCCNC(=O)CCC(C(=O)O)N1CCN(CC(=O)O)CCN(CC(=O)O)CCN(CC(=O)O)CC1)C(C)C)C(N)=O (stereo partly shown) [lutetium-177 labelled],,,"female BALB/c nu/nu mice, liver","intravenous, 100 pmol, 4 h, with: PA 300 µg",,tissue uptake,0.13 ± 0.02 %ID/g
CN1C(C(=O)Nc2nnc(C(F)(F)F)s2)=C(O)c2ccccc2S1(=O)=O,,,,,,pKa (basic),< 2
O=C(Nc1cnccc1Cl)N1CCN(Cc2ccc3c(c2)OC(F)(F)O3)CC1,,,"healthy young women, plasma","oral, 100 mg once daily, day 10, dosing interval 24 h",,AUC(0-tau),6970 ng·h/mL
O=C(Nc1nc2cccc(-c3ccc(CN4CCS(=O)(=O)CC4)cc3)n2n1)C1CC1,,measured: diarrhoea,human rheumatoid arthritis patients,"oral, 200 mg once daily, 4 weeks, regardless of relatedness",,treatment-emergent adverse events,0%
CCOc1ccc(N(C)S(=O)(=O)c2cc(Cl)sc2C(=O)Nc2cc(Cl)cc(C(=O)O)c2)cc1OC,,,"male C57BL/6 mice, brain","intraperitoneal, 10 mg/kg",,AUC extrapolated fraction,8.96%
O=C(COc1ccc(Cl)cc1)NC12CC(c3nnc([C@H]4C[C@@H](OC(F)(F)F)C4)o3)(C1)C2,,catheter site pain,"human, both sexes","oral, dose not given, single ascending dose, fasted, all doses",relative to: subjects,treatment-emergent adverse events,5.6%
OCc1nc2ccc(NCc3ccc(C(F)(F)F)cc3)cc2[nH]1,,,"Balb/c mice, male, plasma","intravenous, 1 mg/kg",,C0,821 ± 126 ng/mL
CNC(=O)c1ccc(-c2cnc3ncc(Cc4ccc5ncccc5c4)n3n2)cc1F,,measured: Pyrexia,cancer patients,"oral, dose not given, dose escalation, grade 3-4",,patients with adverse event,0%
CC(=O)Oc1ccccc1C(=O)O,,,"male Hartley guinea pigs, anaesthetized","intravenous, 1 mg/kg group, baseline before infusion",,mean blood pressure,38 ± 0.1 mmHg
CCCCCCCOc1ccc(CCC(N)(CO)CO)cc1C(F)(F)F.Cl,,,"healthy men, plasma","oral, 0.75 mg, day 1",,AUC(0-tau),5.99 ng·h/mL
CNCCOC12CC3(C)CC(C)(CC(Cn4ncc(-c5ccc(N6CCc7cccc(C(=O)Nc8nc9ccccc9s8)c7C6)nc5C(=O)O)c4C)(C3)C1)C2,,,"beagle dog, male, anaesthetised","intravenous bolus, 0.03 mg/kg, 60 min",relative to: baseline,QTcV interval change,13 ms
Cc1ccc(Sc2ccccc2N2CCNCC2)c(C)c1,,measured: Thirst,healthy adult men,"oral, 5 mg daily, 12 days",,participants with TEAE,0%
C=CC(=O)Nc1cc(Nc2nccc(-c3cn(C)c4ccccc34)n2)c(OC)cc1N(C)CCN(C)C,,storage stability,human plasma,"2 h, on ice, LLOQ level",,recovery,104%
COc1cc2c(Nc3ccc(Cl)c(Cl)c3F)ncnc2cc1OC[C@@H]1C[C@@H]2CN(C)C[C@@H]2C1,,,"FVB Mdr1a/b(-/-)Bcrp1(-/-) triple knockout mice, both sexes, brain","intraperitoneal infusion (osmotic pump), dose not given, 48 h",,unbound brain concentration,33.1 ng/mL
COCc1cc(C(=O)Nc2cc([C@H]3CC[C@@H](OC(=O)NC(C)C)C3)[nH]n2)n(C)n1,,,"OVCAR-3 xenograft, NOD/SCID gamma mice, plasma","oral, 75 twice daily, tumour growth inhibition study",,unbound Cmax,1680 nM
CNC(=O)c1cc(Oc2ccc(NC(=O)Nc3cc(C(C)(C)C)nn3-c3ccc4ncccc4c3)c(F)c2)ccn1,,measured: worst grade 1,human,"oral, dose not given, cycles 1 and 2, High Cmax subgroup",,patients with visual abnormality AE,11%
CCOc1cc(CC(=O)N[C@@H](CC(C)C)c2ccccc2N2CCCCC2)ccc1C(=O)O,CYP2C8,substrate,"human, plasma","0.5 mg, day 1",,median Tmax,1 h
COc1cc2c3c(n(CCCN4CCOCC4)c(=O)c2cc1OC)-c1cc2c(cc1C3=O)OCO2,,,"beagle dog, male, plasma","intravenous infusion, 100 mg/m^2, 1 h infusion, vehicle 1",,CL,58.2 ± 19 L/h/m²
C=CC(=O)N(C)CCOc1c(N)ncnc1-c1cc(F)cc(NC(=O)c2ccc(C3CC3)cc2F)c1C,,,human,"oral, 50 mg, day 3, geometric mean, given alone",,Cmax per dose,2.45 ng/mL/mg
CC(=O)OC[C@H]1O[C@@H]([S-])[C@H](OC(C)=O)[C@@H](OC(C)=O)[C@@H]1OC(C)=O.CCP(CC)CC.[Au+],Toxoplasma gondii,"parasite growth, luciferase reporter","HFF, tachyzoite",72 h,,EC90,6.12 µM
